Published values gathered from unrelated publications.
A part holds a random share of what one study measured. Substitutions count along the parent as printed.

Sample 1 — method: RNA Bind-n-Seq; molecule type: RNA; medium: in vitro; tested at: 365 nM; baseline: no-protein control; reading: higher = stronger binding
Target: RNA binding protein fox-1 homolog 2, RRM domain, GST-SBP tag (RBFOX2, Homo sapiens, UniProt O43251-10, residues 100-194)
Setting: natural RNA segment, single round, ends assumed
Construct (chain): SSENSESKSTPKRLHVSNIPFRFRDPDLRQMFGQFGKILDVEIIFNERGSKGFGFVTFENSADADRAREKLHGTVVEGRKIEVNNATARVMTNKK
Sequence	RBNS enrichment (R)
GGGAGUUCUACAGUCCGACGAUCUUUUUUGUGUUAACAGCUUUUUGACACAAUUACUGGGUAAUUUCUAAUAUAGGCAGCAGACUGUUUUACGGGUUGCUGUUUUAACAUGGGUUUUUGUCAGAUCCAUGGUCUGGAAUUCUCGGGUGCCAA	0.248
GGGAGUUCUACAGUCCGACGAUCCCUGGGUUCAAGCAAUUCUCCUGCUUCAGCCUCCCGAGUAGCUGGGAUUACAGGUGUGUACCACCACGCCUGGCAAUUUUUUUGUAUUUUUAGUAGAGAUGGGGUUUCGCUGGAAUUCUCGGGUGCCAA	0.411
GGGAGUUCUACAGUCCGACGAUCGUCUGCAUUUGAUGUAAUGCCUUAAUUACUGGGGCCACAUUCACGUUGACUGUCUCAGAGACUGUAAGCUCCCGGAGAGCAGGGUUGCUGUAAUGGGAAUGUUUAAGUGUUGGAAUUCUCGGGUGCCAA	1.49
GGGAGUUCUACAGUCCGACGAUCGAGUGGUUGGAGAGACUUGCGAAGGCGGCUGGGGUGUUCGGAUUUCCAAUAAAGAAACAGAGUGAUGCUCCUGUGUCUGACCGGGUUUGUGAGACAUUGAGGCUGUCUUGUGGAAUUCUCGGGUGCCAA	0.754
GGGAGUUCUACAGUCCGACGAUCGUGAAGGGAAAAAUGAUUUUGCAAGACCUAGAUUUUGGCUUGGUUUCUUGCCUCCUUUUUUGGCAGCCUUCAUCUUUUCCUAAAGCCCUUGAGCCUGUAGGGUUUUCAUAUGGAAUUCUCGGGUGCCAA	1.66
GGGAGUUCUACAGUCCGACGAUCCAAACUAGGAACAAAUUCUGAGUGUACCAAUGGCUGCGAAUGCUAUGAUUUUGUGACUUCUGGUCAGUCGGUCAGCAGGCCGGGAUGUAUCAUUACCCUGAGCGAGCUGGUGGAAUUCUCGGGUGCCAA	0.436
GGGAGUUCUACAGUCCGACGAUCGUGAAGAAACACCUCGUAGUUCACGCCACCAAAGCAGUUCUUGUCACACCUUUCCUGCCUGCGCAAACCUAGCUGUACCUAGCUGUACACGUCCUUUAUUAGAGAUGACCUGGAAUUCUCGGGUGCCAA	0.392
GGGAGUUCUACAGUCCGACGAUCUUAGUUCUAUUCGUGGUGCUAGGUAGCUUGACAGGUAUGAUAUGCAUAAGUCAUAGCUCUAUUCUUAGUGUCAUAAAGUGUAGCUAAUUUAUAAGCUCUAAGUAAUCAGCUGGAAUUCUCGGGUGCCAA	0.704
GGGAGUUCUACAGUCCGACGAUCCAUGCUUUCAUUAUCAAGUGUAGUCAGCCGUCUGUUGAGGUCAGGUUUCCUUCCGUUAGCUUUUGGGUUUCCUCGGUGGCUCUGGCAAGGCUGCUGCUGUGUCAUUCGGUUGGAAUUCUCGGGUGCCAA	0.368
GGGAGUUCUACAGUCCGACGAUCGCUGGACUGACAGUAGGAAGUAGAAAUAAGCUAUGUGUAGUCUUGGAAAGUUCCCACCUCACAGGGAAUGAAACCUAGGGAACACCAGGUACUCGGCGCCCUGUGGACUGUGGAAUUCUCGGGUGCCAA	0.722
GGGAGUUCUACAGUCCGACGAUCUCUCUCUCGAGCGUACCAUAAACCUGCAGAGAGAAGUCUCGAAAGGCUCCACCAGGUACCAAGGGCAGCUGCUUUUCCUGUCUUUUGUGCAUGGGCGACCCAUUACAGUAUGGAAUUCUCGGGUGCCAA	0.481
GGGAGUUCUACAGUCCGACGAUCAGCGUUUUCGACCUUAUUAAACCUCUUUUAGUGCUUCUAAGCAAGUCAGGUCUGUGGCUCUGAGGCCUUCACUUAGAGCUGUCAGUGUGAUUUCCAGGAUGAGUCAGGGUUGGAAUUCUCGGGUGCCAA	0.594

Sample 2 — method: protein binding microarray; molecule type: double-stranded DNA, one strand shown; medium: in vitro; tested at: not given; baseline: not given; reading: higher = stronger binding
Target: Histone acetyltransferase KAT6A, both winged helices, GST fusion (KAT6A, Homo sapiens, UniProt Q92794, residues 1-181)
Setting: 8-mer, flanks averaged, mean of 2 arrays, mostly near background
Target sequence (chain): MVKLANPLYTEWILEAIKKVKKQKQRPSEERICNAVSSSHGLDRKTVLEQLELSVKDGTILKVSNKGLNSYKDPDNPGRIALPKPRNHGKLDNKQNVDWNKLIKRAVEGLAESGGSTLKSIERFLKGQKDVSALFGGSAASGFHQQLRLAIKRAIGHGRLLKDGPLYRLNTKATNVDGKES
Sequence	E-score
CCGATGAC	0.106
AGGTTACG	0.0278
CAGTGAAG	-0.0644
CTCTTCGC	0.0686
CGTGAGAG	0.00686
GCAATTTA	0.0667
CTCATGTA	0.043
CACATCTC	-0.0825
GACTCCTA	-0.233
CAAGCCAC	-0.2
CTTCACTA	-0.11
GGGTCAAA	-0.0145
ACTTCCGG	0.133
ACAGCGCT	0.317
AGGTCGCG	0.14
GGAAGCCA	-0.0437
CACACTTC	-0.138
TGTCATAA	-0.0696
CGCCACAA	0.0669
CCGGCGCG	0.361
CGAACTTA	-0.000305
AACCTGCC	-0.128
AAGTATGG	-0.119
CCGATAAC	0.121
CTGTTCGA	-0.148

Sample 3 — method: universal PBM; molecule type: double-stranded DNA, one strand shown; medium: in vitro; tested at: not given; reading: higher = stronger binding
Target: Sal-like protein 4, full length isoform B (SALL4, Homo sapiens, UniProt Q9UJQ4-2, residues 1-616)
Setting: 8-mer, flanks averaged, mean of replicates
Construct (chain): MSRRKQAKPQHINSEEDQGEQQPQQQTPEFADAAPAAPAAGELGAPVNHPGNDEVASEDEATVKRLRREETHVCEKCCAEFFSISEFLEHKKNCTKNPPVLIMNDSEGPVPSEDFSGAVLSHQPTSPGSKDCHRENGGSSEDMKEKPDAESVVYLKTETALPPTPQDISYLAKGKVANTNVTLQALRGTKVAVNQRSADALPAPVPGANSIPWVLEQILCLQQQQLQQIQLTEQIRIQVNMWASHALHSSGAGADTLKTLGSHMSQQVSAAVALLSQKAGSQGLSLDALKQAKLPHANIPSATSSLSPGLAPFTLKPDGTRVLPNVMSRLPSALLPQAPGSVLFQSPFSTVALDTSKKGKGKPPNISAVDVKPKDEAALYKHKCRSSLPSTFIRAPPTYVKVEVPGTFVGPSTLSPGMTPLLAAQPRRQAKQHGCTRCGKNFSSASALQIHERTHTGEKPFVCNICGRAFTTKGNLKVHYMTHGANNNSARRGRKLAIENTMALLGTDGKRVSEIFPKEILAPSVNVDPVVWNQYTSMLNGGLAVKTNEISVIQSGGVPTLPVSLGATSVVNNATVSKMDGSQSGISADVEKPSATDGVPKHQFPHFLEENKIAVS
Sequence	E-score
GGGTGTGA	-0.0412
GAGGAGGA	-0.133
GAGAAAAC	-0.128
CTTGGCGC	-0.19
CAGTGCGG	-0.333
ACTTCGAA	0.0602
AGGCCACC	-0.245
AAGAGCAC	-0.0866
ATCACAAA	0.2
ATCTGAAA	0.135
CGACTCCC	-0.0995
CTTTGCGA	-0.127
CGTCGGCC	-0.258
CAATGAAA	0.143
ATCCAAAC	0.186
CGTCTGAA	-0.0401
AAAGTAAG	0.154
CACGCTCC	-0.288
AGGATAAG	0.0295
CCAAGTCA	-0.0572
GGACGATA	0.0157
GGAACTCC	-0.248
ACACCGGG	-0.33
AGAAGGTC	-0.0335
AGTTGAGC	-0.154

Sample 4 — method: DHFR PCA, deep sequencing; medium: yeast; together with: (+)-ABA 2500 µM; baseline: wild-type fitted maximum; reading: higher = stronger binding
Target: ABI1, truncated, D143A, DHFR fusion (Arabidopsis thaliana)
Setting: methotrexate growth selection, single substitutions
Starting sequence: PYL1, truncated, DHFR fusion (Arabidopsis thaliana); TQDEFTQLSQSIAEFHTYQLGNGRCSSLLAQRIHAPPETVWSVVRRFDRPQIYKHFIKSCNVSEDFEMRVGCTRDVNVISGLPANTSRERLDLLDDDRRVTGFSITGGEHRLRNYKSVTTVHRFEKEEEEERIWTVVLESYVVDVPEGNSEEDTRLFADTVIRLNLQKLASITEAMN
Substitution	relative binding score
E89L	2.55%
G23C	92.4%
F124N	94%
V161D	-7.35%
V62Q	85.5%
A84F	62.7%
P36H	93.4%
F5R	103%
K58C	87.1%
V143E	3.33%
G81P	70.3%
L29N	101%
H34G	96.4%
W41T	-3.36%
T17H	111%
A35F	53.7%
S117L	13%
Y18W	102%
T120C	65.3%
R90G	61.9%

Mixed results — molecule type: peptide; reading: direction not given
Sequence	target or system	assay	system	setting	enrichment score
SMTDFYHSKRRLIFSK	Saccharomyces cerevisiae	mating pheromone growth arrest, pooled competitive growth deep sequencing	no Cln2 overexpression	peptide tiling library	0.0606
GFGFLLFICKLTF	human cyclin A2	peptide binding, competitive growth sequencing	Saccharomyces cerevisiae, cyclin A2-Cln2 fusion strain	mutational scanning library 2	0.797
SSEVARHLLFQSHM	Saccharomyces cerevisiae	mating pheromone growth arrest, pooled competitive growth deep sequencing	no Cln2 overexpression	peptide tiling library	-0.0955
LLRRLQDVANDRG	human cyclin A2	peptide binding, competitive growth sequencing	Saccharomyces cerevisiae, cyclin A2-Cln2 fusion strain	mutational scanning library 2	-0.552

Repeated from above (sample 2):
Sequence	E-score
CGCCACAA	0.0669
CAAGCCAC	-0.2
ACTTCCGG	0.133
AACCTGCC	-0.128
CTGTTCGA	-0.148
AGGTTACG	0.0278
GCAATTTA	0.0667
AGGTCGCG	0.14
ACAGCGCT	0.317
CTCTTCGC	0.0686
CGAACTTA	-0.000305
CTCATGTA	0.043
